Experimental data pooled from the literature.
A part holds a random share of what one study measured. Changes are numbered by the printed parent chain.

Study 1 — target: CCNA1, cyclin fold, Cln2 fusion (human); method: yeast growth competition, sequencing; matrix: yeast; setting: weak parent motif; baseline: not given; direction: higher = stronger binding; measurement: normalised enrichment score
Starting sequence: BRCA2 docking peptide (human); PSIKRNLLNEFDR; partner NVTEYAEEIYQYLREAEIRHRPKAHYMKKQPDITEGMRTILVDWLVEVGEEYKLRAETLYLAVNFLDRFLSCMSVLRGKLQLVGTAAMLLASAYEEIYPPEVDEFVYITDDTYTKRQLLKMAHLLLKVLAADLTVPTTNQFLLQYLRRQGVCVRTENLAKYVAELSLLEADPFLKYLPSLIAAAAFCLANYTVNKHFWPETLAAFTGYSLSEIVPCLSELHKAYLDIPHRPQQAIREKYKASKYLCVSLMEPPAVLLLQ
Substitution = P1R; value = 0.596
Substitution = R13L; value = 0.0979
Substitution = S2G; value = 0.578
Substitution = R5V; value = 0.459
Substitution = L8P; value = -0.0743
Substitution = F11K; value = 0.13
Substitution = S2Q; value = 0.556
Substitution = S2H; value = 0.269
Substitution = K4C; value = 0.874
Substitution = I3E; value = 0.158
Substitution = E10G; value = 0.203

Study 2 — method: protein-binding microarray; form: double-stranded DNA, one strand shown; matrix: in vitro; concentration: 940 nM top; setting: 60-bp whole probe; with: salmon DNA 0.4 mg/ml; baseline: random background probes; direction: higher = stronger binding; measurement: fitted relative affinity; constant ends, left off below: GCCTAGCAC … GTCTTGATTCGCTTGACGCTGCTG
Target: Interferon regulatory factor 5, full length, phosphomimetic (IRF5, Homo sapiens, UniProt Q13568-2, residues 1-514, S451D/S453D/S456D/S462D)
Strand = GACGATTTTGGGTATCGAGACGTGCTA; value = 1.32 z-score
Strand = TCATCTTTCCCTGCCCCATGGTGCTAG; value = 1.33 z-score
Strand = TTAGGTTTCGCTCTCGGTTAGTGCTAG; value = 10.3 z-score
Strand = TTAGGCATCGGGTATCGGTTAGTGCTA; value = 2.72 z-score
Strand = GACGGTCTCCGTTTCGGGACGTGCTAG; value = 0.851 z-score
Strand = TTAGATTTCGGGACTGGAGTAGTGCTA; value = 0.341 z-score
Strand = GTCGGTATCCTTCTCCTGACGTGCTAG; value = 1.67 z-score
Strand = GACGGACTGGGGGTTCGGGACGTGCTA; value = 0.384 z-score
Strand = GACGGACTGCTACTTCTGACGTGCTAG; value = -0.243 z-score
Strand = GACGGACTGGACTTTCGGGAGGTGCTA; value = 0.302 z-score
Strand = GACGACTTCAGTATCGAGACGTGCTAG; value = 1.9 z-score
Strand = GCTGACACTAACACAGTGGTGTGCTAG; value = -0.55 z-score
Strand = GAAAATTTCTTCCTCCCCCTGTGCTAG; value = 0.182 z-score

Study 3 — method: protein binding microarray; form: double-stranded DNA, one strand shown; matrix: in vitro; concentration: not given; baseline: not given; direction: higher = stronger binding; measurement: E-score
Target: Histone acetyltransferase KAT6A, winged helix 1, GST fusion (KAT6A, Homo sapiens, UniProt Q92794, residues 1-85)
Setting: 8-mer, flanks averaged, mean of 2 arrays, mostly near background
Residues (chain): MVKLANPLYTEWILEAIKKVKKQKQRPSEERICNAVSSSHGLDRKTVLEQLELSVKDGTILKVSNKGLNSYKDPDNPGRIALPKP
Strand = ATACATGC; value = -0.00377
Strand = AGTTACGA; value = -0.151
Strand = ACATTTCG; value = -0.0987
Strand = CAAAGAGG; value = -0.18
Strand = GGTCCGAC; value = 0.193
Strand = CTAGACAG; value = -0.0259
Strand = AGATTTTC; value = -0.262
Strand = ATGCTAGA; value = -0.191
Strand = AAGTTCCG; value = 0.0933
Strand = CTTTTATA; value = 0.0309
Strand = AGGTCTCA; value = -0.213
Strand = CGTCCCGA; value = 0.265
Strand = CTGGCCGC; value = 0.1
Strand = TATCTAGA; value = -0.177
Strand = ACCAACGG; value = 0.169
Strand = AGCTGATG; value = 0.0405

Further values, each from its own experiment
Substance = PhoQ, residues 284 288 289 292 302 303 ALAMYF; target = PhoP, residues 12 14 15 18 19 AQALL (Escherichia coli, UniProt P23836); test = Sort-seq, refers to: YFP reporter; test system = E. coli; setting = PhoQ-PhoP variant library, with: 10 µM Mg2+; scale = baseline: high Mg2+ state, higher = stronger signaling; measurement = fold induction; value = 14.2
